# Measurements pooled from the literature.
# Protocols differ between the studies behind these lines. Values joined by “and” are separate records of one study, mostly repeats; a detail may differ. ± marks the error that the study gave.
SMILES,tested on,assay,system,conditions,how to read,quantity,result
c1ccc(CCNc2ccnc3ccccc23)cc1,CDK8/CDK19,NF-κB reporter gene,293-NFκB-Luc,"3 h, with: TNF-α 10 ng/mL",,IC50,> 5 µM
CC[S+]([O-])c1nc(-c2ccccc2)cc(C(F)(F)F)n1 (centres unmarked),importin beta-1,"SREBP1 nuclear import, high content imaging",HeLa Kyoto,"0.5 µM, 3 h, with: glucose and MG132",,cells with nuclear SREBP1,91.9% and 88.8% and 87.3% and 86.1%
[Cl-].[Cl-].[Pt+2].[Ru+2].c1ccc(-c2nc3ccccc3nc2-c2ccccn2)nc1.c1cnc2c(c1)ccc1cccnc12.c1cnc2c(c1)ccc1cccnc12,pcDNA supercoiled plasmid,agarose gel electrophoresis,,"10 µM, photoinduced cleavage, with: 0.1 µM pcDNA",,supercoiled DNA,92.6%
CCN(CC)c1ccc(/C=N/c2ccc(F)c(Cl)c2)c(O)c1,yeast alpha-glucosidase,enzyme activity,,with: pNPG,,IC50,60.9 µM
NC1(C(=O)N[C@@H](CCO)c2ccc(Cl)cc2)CCN(c2nc[nH]c3nccc2-3)CC1,Akt,inhibitor,mouse BT-474 xenograft,"oral, 300 mg/kg",,time to peak response,8 h
[Cl-].[Cl-].[Pt+2].[Ru+2].c1ccc(-c2nc3cc4ccccc4cc3nc2-c2ccccn2)nc1.c1cnc2c(c1)ccc1cccnc12.c1cnc2c(c1)ccc1cccnc12,pcDNA supercoiled plasmid,agarose gel electrophoresis,,"20 µM, photoinduced cleavage, with: 0.1 µM pcDNA",,nicked circular DNA,12.6%
O=C(c1ccc(Cl)cc1)N(Cc1ccccc1)C1CCCCC1,SKCa channel,,,10 µM,,inhibition,2.8%
Cn1cc(-c2ccc(-c3cncc(Cl)c3N3CCC4(CCNC4=O)CC3)cc2)cn1,COLO 205,"gene expression, microarray, refers to: GLS mRNA",,"concentration not given, 6 h",reference: untreated cells,log2 fold change,1.56
CC(Nc1nc(N2CCCC2)nc2ccccc12)c1ccccc1 (centres unmarked),importin beta-1,"SREBP1 nuclear import, high content imaging",HeLa Kyoto,"0.05 µM, 3 h, with: glucose and MG132",,cells with nuclear SREBP1,87.2% and 88.2% and 81.5% and 85.7%
[Cl-].[Cl-].[Pt+2].[Ru+2].c1ccc(-c2nccnc2-c2ccccn2)nc1.c1cnc2c(c1)ccc1cccnc12.c1cnc2c(c1)ccc1cccnc12,pcDNA supercoiled plasmid,agarose gel electrophoresis,,"20 µM, photoinduced cleavage, with: 0.1 µM pcDNA",,supercoiled DNA,77.4%
CCS(=O)(=O)c1nc(C2CC2)cc(C(F)(F)F)n1,importin beta-1,"SREBP1 nuclear import, high content imaging",HeLa Kyoto,"15.82 µM, 3 h, with: glucose and MG132",,cells with nuclear SREBP1,90.7% and 89.1% and 91.2% and 87.8%
NCCOc1cc(NC(=O)c2cccc(C(=O)Nc3cc(OCCN)c4ccccc4n3)n2)nc2ccccc12,c-myc G-quadruplex DNA,FRET melting,,"1 µM, pH 7.4, with: 60 mM potassium",,ΔTm,9.1 ± 0.2 K
Oc1ccccc1-c1n[nH]cc1-c1ccnc2ccccc12,KIN3 (Candida albicans),"kinase binding, MIB/MS competition",Candida albicans lysate,10 µM,reference: DMSO,log2 fold change,0.4
NCCOc1cc(NC(=O)c2cc(OCc3c[nH]nn3)cc(C(=O)Nc3cc(OCCN)c4ccccc4n3)n2)nc2ccccc12,c-myc G-quadruplex DNA,FRET melting,,"1 µM, pH 7.4, with: 60 mM potassium",,ΔTm,5.8 ± 0.1 K
Cc1c[nH]c(-c2cnc(NCCNc3ccc(C#N)cn3)nc2-c2ccc(Cl)cc2Cl)n1,GSK3,"inhibitor, immunoblot",HEK293 stably expressing Hwa-HA,"5 µM, 24 h",,Hwa phosphorylation,decreased
c1coc(-c2n[nH]cc2-c2ccnc3ccccc23)c1,MPS1 (Candida albicans),"kinase binding, MIB/MS competition",Candida albicans lysate,1 µM,reference: DMSO,log2 fold change,0.02
O=C(Nc1cc(OCCN2CCCC2)c2ccccc2n1)c1cc(OCCN2CCCC2)cc(C(=O)Nc2cc(OCCN3CCCC3)c3ccccc3n2)n1,c-myc G-quadruplex DNA,FRET melting,,"1 µM, pH 7.4, with: 60 mM potassium",,ΔTm,17.1 ± 0.8 K
